Assay results gathered from unrelated publications.
Every numbered part comes from another study and shows a few of its results, in no order. “And” joins repeats or separate records; there may be more than shown.
UniProt Q9UQM7, sequence (whole entry, looked up): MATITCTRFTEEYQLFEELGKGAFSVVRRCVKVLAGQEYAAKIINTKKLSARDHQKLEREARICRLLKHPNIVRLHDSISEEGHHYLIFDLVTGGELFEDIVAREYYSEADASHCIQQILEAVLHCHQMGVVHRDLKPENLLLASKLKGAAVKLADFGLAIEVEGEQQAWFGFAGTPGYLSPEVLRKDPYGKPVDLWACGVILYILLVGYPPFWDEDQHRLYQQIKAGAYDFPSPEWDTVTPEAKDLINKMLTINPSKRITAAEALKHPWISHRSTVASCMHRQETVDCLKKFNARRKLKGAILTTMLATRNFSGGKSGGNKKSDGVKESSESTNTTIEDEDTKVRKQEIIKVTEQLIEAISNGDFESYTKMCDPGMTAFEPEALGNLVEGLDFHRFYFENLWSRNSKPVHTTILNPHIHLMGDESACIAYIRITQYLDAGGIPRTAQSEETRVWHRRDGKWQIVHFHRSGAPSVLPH
UniProt P27448, sequence (whole entry, looked up): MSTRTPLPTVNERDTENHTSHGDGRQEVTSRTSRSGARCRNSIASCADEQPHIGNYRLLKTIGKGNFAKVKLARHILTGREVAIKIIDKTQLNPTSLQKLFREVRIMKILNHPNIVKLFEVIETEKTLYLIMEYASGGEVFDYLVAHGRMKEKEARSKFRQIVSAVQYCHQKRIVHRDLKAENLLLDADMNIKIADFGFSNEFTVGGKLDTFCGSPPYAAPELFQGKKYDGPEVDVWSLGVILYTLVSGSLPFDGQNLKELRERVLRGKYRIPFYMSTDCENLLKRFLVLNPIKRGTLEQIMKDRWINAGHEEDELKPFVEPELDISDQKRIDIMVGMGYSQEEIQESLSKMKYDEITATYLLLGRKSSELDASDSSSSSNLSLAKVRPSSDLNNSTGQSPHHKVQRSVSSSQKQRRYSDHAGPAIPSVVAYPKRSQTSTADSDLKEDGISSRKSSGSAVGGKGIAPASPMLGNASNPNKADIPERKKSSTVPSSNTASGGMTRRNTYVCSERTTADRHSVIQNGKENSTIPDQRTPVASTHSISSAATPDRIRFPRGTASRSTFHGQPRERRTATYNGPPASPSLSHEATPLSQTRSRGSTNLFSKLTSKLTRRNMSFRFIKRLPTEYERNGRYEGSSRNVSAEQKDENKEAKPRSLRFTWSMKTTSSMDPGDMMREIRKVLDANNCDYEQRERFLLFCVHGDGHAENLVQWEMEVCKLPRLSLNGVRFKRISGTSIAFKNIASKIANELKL
UniProt Q9H3Y6, sequence (whole entry, looked up): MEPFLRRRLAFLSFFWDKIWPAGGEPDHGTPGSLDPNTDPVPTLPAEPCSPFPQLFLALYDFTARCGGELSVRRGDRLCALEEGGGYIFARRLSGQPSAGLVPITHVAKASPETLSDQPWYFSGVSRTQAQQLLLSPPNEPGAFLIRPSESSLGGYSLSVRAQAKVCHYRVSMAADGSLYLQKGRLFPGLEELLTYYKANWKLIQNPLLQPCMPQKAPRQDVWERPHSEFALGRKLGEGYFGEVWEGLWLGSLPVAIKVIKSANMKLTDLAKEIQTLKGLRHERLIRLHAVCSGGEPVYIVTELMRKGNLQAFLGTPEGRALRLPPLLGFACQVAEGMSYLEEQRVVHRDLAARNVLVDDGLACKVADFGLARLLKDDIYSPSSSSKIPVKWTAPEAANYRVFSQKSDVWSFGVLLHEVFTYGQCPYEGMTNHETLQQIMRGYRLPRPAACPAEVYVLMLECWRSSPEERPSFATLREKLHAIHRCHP
UniProt Q96BR1, sequence (whole entry, looked up): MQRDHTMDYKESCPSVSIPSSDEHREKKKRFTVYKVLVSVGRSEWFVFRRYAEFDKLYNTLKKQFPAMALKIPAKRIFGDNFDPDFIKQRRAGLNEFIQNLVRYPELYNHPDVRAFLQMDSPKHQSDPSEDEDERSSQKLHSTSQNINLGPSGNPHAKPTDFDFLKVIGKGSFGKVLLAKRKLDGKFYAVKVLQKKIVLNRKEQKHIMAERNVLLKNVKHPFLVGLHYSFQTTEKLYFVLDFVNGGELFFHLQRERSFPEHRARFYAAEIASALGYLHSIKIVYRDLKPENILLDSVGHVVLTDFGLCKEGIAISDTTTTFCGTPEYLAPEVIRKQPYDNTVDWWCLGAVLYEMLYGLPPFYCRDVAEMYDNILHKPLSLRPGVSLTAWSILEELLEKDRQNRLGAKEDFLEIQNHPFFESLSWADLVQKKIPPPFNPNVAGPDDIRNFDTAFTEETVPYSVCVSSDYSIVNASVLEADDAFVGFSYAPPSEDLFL
UniProt P29320, sequence (whole entry, looked up): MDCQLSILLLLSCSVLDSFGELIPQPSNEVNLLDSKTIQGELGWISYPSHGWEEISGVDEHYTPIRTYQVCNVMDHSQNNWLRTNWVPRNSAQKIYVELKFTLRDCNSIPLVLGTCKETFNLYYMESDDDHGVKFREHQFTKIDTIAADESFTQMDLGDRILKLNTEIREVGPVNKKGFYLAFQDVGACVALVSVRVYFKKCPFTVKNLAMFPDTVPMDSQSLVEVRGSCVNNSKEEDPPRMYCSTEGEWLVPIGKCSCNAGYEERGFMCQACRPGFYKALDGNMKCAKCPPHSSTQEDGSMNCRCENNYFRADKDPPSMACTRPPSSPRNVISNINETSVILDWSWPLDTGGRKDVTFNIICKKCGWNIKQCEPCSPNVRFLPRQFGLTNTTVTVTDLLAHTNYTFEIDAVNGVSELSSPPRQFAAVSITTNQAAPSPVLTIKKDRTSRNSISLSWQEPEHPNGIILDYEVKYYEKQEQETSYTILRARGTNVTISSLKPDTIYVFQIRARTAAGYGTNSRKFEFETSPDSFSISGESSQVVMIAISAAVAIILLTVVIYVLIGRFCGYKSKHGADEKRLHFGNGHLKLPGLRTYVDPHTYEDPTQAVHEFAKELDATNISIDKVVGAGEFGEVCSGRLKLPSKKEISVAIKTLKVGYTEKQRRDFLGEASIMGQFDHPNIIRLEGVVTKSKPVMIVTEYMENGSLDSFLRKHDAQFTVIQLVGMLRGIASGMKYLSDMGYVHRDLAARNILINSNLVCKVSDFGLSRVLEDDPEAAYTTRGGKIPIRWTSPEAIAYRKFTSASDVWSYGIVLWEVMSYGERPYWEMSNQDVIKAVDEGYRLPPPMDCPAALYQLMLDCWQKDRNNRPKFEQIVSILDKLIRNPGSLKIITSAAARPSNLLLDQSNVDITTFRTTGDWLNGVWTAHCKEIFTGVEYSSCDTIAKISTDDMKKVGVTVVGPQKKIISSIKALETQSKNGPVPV

Study 1 — cell line: mouse MPNST tumor cells; method: high-content nuclear imaging; refers to: cell number; tested at: 10 µM; time: 12 h; setting: mean of 2 replicates; reference: plate mean; reading: higher = more cells
Compound	nuclei count
O=C(O)CCCc1ccccc1	-0.0138 z-score
OC[C@H]1O[C@@H](n2cnc3c2N=CNC[C@H]3O)C[C@@H]1O	1.14 z-score
CN1CCN(CCCN2c3ccccc3Sc3ccc(C(F)(F)F)cc32)CC1	-7.28 z-score
COc1cccc2c1C(=O)c1c(O)c3c(c(O)c1C2=O)C[C@@](O)(C(C)=O)C[C@@H]3O[C@H]1C[C@H](N)[C@H](O)[C@H](C)O1	-5.25 z-score
Clc1ccc(Cn2c(CN3CCCC3)nc3ccccc32)cc1	2.96 z-score and 4.88 z-score
NC(=O)NC1NC(=O)NC1=O (stereo not shown)	0.279 z-score
CN1CCC[C@@H]1CCO[C@](C)(c1ccccc1)c1ccc(Cl)cc1	-3.93 z-score and -1.07 z-score
N=C(NCCCCCCNC(=N)NC(=N)Nc1ccc(Cl)cc1)NC(=N)Nc1ccc(Cl)cc1	-5.24 z-score

Study 2 — tested at: 1 µM
Compound: COc1ccc2[nH]c3c4[nH]c5ccc(OC)cc5c4c4c(c3c2c1)C(=O)NC4=O
target	method	refers to	setting	reference	remaining binding
ALK (Homo sapiens, UniProt Q9UM73)	competitive binding panel	–	–	vehicle	55%
MAP3K4 (Homo sapiens, UniProt Q9Y6R4)	competitive binding panel	–	–	vehicle	100%
GRK1 (Homo sapiens, UniProt Q15835)	competitive binding panel	–	–	vehicle	95%
EGFR (Homo sapiens, UniProt P00533)	competitive binding panel	–	–	vehicle	51%
EPHA4 (Homo sapiens, UniProt P54764)	competitive binding panel	–	–	vehicle	86%
SRMS (Homo sapiens, UniProt Q9H3Y6)	competitive binding panel	–	–	vehicle	100%
CAMK2A (Homo sapiens, UniProt Q9UQM7)	competitive binding panel	–	–	vehicle	70%
SGK3 (Homo sapiens, UniProt Q96BR1)	competitive binding panel	–	–	vehicle	8.1%
MAP3K20 (Homo sapiens, UniProt Q9NYL2)	competitive binding panel	ZAK	–	vehicle	100%
CSF1R (Homo sapiens, UniProt P07333)	competitive binding scan	–	autoinhibited form	–	59%

Study 3 — observed: enzyme activity; mode: inhibitor; tested at: 0.5 µM; reference: control
Target: Serine/threonine-protein kinase MRCK alpha (CDC42BPA, Homo sapiens, UniProt Q5VT25)
UniProt Q5VT25, sequence (whole entry, looked up): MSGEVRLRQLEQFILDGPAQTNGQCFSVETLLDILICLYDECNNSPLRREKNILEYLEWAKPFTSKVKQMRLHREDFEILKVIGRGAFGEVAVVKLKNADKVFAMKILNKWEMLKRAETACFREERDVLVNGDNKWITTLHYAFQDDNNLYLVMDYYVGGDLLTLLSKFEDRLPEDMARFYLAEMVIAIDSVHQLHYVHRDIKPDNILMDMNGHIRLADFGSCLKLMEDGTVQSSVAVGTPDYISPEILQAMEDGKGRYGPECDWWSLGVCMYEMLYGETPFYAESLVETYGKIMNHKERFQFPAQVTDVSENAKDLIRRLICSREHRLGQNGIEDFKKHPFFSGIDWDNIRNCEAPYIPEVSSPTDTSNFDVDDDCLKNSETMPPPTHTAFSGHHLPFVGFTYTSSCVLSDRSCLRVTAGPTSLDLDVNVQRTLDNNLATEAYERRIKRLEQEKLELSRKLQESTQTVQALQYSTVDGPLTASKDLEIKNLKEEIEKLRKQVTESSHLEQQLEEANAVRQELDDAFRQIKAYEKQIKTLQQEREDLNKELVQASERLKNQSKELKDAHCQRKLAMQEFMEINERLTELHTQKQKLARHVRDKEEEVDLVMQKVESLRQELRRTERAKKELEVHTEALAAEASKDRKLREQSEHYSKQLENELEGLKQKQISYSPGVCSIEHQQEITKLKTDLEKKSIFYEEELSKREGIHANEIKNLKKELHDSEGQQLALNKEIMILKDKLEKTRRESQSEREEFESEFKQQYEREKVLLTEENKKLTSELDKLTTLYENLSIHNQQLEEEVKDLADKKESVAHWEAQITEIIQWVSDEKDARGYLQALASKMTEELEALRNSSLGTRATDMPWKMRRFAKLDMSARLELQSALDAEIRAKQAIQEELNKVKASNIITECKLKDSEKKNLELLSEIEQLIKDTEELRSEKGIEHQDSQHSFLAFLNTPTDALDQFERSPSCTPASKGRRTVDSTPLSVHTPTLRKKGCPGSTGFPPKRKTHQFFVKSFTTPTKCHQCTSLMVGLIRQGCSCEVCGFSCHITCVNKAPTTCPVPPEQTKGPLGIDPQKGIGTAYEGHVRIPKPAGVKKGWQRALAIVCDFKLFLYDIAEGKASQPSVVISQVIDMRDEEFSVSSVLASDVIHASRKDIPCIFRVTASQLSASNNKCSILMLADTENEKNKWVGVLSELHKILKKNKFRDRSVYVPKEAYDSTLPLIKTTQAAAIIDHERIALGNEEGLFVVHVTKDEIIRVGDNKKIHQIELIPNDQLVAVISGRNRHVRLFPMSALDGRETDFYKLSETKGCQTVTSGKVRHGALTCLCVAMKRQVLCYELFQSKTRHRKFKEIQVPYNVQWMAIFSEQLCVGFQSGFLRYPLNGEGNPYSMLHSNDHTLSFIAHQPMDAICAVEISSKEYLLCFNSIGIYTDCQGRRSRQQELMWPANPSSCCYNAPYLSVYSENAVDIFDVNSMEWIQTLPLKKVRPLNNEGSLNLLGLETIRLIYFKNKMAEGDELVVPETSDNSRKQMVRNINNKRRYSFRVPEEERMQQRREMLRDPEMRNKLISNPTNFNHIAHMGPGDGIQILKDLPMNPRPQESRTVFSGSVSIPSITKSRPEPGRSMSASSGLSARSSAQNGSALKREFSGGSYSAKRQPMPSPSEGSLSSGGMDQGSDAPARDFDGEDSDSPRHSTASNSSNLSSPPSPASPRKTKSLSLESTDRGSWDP
SMILES	remaining activity [%]
CN([C@@H](Cc1ccc(OS(=O)(=O)c2cccc3cnccc23)cc1)C(=O)N1CCN(c2ccccc2)CC1)S(=O)(=O)c1cccc2cnccc12	98.9
Cn1nc2c3c(cccc31)C(=O)c1ccccc1-2	106
O=c1cc(-c2cccc3c2Sc2ccccc2S3)oc(N2CCOCC2)c1	106
Nc1cccc(-c2cc3c(Oc4cccc(O)c4)ncnc3[nH]2)c1	87.7
Cc1cc2ncc(-c3ccccc3)nc2cc1C	81.2
O=C(NC(NC(=S)Nc1ccc(F)c([N+](=O)[O-])c1)C(Cl)(Cl)Cl)C(c1ccccc1)c1ccccc1 (stereo not shown)	111
CCN(CC)CCNC(=O)c1c(C)[nH]c(/C=C2\C(=O)Nc3ccc(Cl)cc32)c1C	60
CN(C)C[C@H]1CCn2c(c(C3=C(c4cn(C)c5ccccc45)C(=O)NC3=O)c3ccccc32)C1	98.1
O=C1c2ccccc2-c2n[nH]c3cccc1c23	102
N#Cc1c(NC(=O)c2cccc3ccccc23)sc2c1CCCC2	103
N#C/C(=C\c1ccc(O)c(O)c1)C(=O)NCc1ccccc1	99.4
COc1cc2c(cc1OC)-c1[nH]nc(Nc3cccc(F)c3)c1C2	119
O=C1C(Cl)=C(N2C(=O)CCC2=O)C(=O)c2ccccc21	103
O=C(Nc1cccc(Nc2nccc(Nc3cccc(C(F)(F)F)c3)n2)c1)C1CC1	100
C[C@@H]1CCN(C(=O)CC#N)C[C@@H]1N(C)c1ncnc2[nH]ccc12	110
Cc1nc2cc3nc(-c4cccs4)cnc3cc2n1C	109
c1ccc(-c2cnc(Nc3ccc(OCCN4CCCC4)cc3)s2)cc1	91
CCN(CC)C(=O)c1ccc(Nc2nc(OCC3CCCCC3)c3[nH]cnc3n2)cc1	90.7
COc1cc2ncnc(Nc3cccc(Cl)c3)c2cc1OC	82.2
CCOc1nc(NC(=O)Cc2cc(OC)ccc2OC)cc(N)c1C#N	98.9
COc1cc2ncnc(Nc3ccc(O)c(Br)c3)c2cc1OC	96.9
Cc1cn(-c2cc(NC(=O)c3ccc(C)c(Nc4nccc(-c5cccnc5)n4)c3)cc(C(F)(F)F)c2)cn1	88.5
CCN(CC)CCNC(=O)c1c(C)[nH]c(/C=C2\C(=O)Nc3ccc(F)cc32)c1C	89.5
Ic1cccc(CSc2nnc(-c3ccncc3)o2)c1	98.4

Study 4 — observed: cell-free assay; method: competition with immobilised ligand; tested at: 1 µM
SMILES: O=S(=O)(NC1CCC(c2cc(F)ccc2F)(S(=O)(=O)c2ccc(Cl)cc2)CC1)C(F)(F)F (stereo not shown)
target	remaining binding [%]
MAP3K13 (Homo sapiens, UniProt O43283)	91
MARK3 (Homo sapiens, UniProt P27448)	79
Ribosomal protein S6 kinase alpha-5, N-terminal kinase domain (RPS6KA5, Homo sapiens, UniProt O75582)	94
EPHA3 (Homo sapiens, UniProt P29320)	100
Non-receptor tyrosine-protein kinase TYK2, JH2 (TYK2, Homo sapiens, UniProt P29597)	86
PHKG1 (Homo sapiens, UniProt Q16816)	80
GRK4 (Homo sapiens, UniProt P32298)	100
Tyrosine-protein kinase JAK2, JH1 (JAK2, Homo sapiens, UniProt O60674)	83
RET (Homo sapiens, UniProt P07949, V804L)	84
EPHA6 (Homo sapiens, UniProt Q9UF33)	100
Tyrosine-protein kinase JAK1, JH1 (JAK1, Homo sapiens, UniProt P23458)	70
Tyrosine-protein kinase ABL1, phosphorylated (ABL1, Homo sapiens, UniProt P00519, T315I)	85
COQ8B (Homo sapiens, UniProt Q96D53)	88
FGFR3 (Homo sapiens, UniProt P22607, G697C)	100
PRKCH (Homo sapiens, UniProt P24723)	99
Ribosomal protein S6 kinase alpha-1, C-terminal kinase domain (RPS6KA1, Homo sapiens, UniProt Q15418)	100
STK26 (Homo sapiens, UniProt Q9P289)	85
MAP3K9 (Homo sapiens, UniProt P80192)	98
ULK3 (Homo sapiens, UniProt Q6PHR2)	82
PAK6 (Homo sapiens, UniProt Q9NQU5)	100
PIK3CA (Homo sapiens, UniProt P42336)	100
RIOK2 (Homo sapiens, UniProt Q9BVS4)	82
PAK4 (Homo sapiens, UniProt O96013)	100
EPHB4 (Homo sapiens, UniProt P54760)	100
MAP2K5 (Homo sapiens, UniProt Q13163)	52

Excerpt of the above (study 3):
SMILES	remaining activity [%]
O=C(NC(NC(=S)Nc1ccc(F)c([N+](=O)[O-])c1)C(Cl)(Cl)Cl)C(c1ccccc1)c1ccccc1 (stereo not shown)	111
CCN(CC)CCNC(=O)c1c(C)[nH]c(/C=C2\C(=O)Nc3ccc(Cl)cc32)c1C	60
CN(C)C[C@H]1CCn2c(c(C3=C(c4cn(C)c5ccccc45)C(=O)NC3=O)c3ccccc32)C1	98.1
O=C1c2ccccc2-c2n[nH]c3cccc1c23	102
N#Cc1c(NC(=O)c2cccc3ccccc23)sc2c1CCCC2	103
N#C/C(=C\c1ccc(O)c(O)c1)C(=O)NCc1ccccc1	99.4
COc1cc2c(cc1OC)-c1[nH]nc(Nc3cccc(F)c3)c1C2	119
O=C1C(Cl)=C(N2C(=O)CCC2=O)C(=O)c2ccccc21	103
O=C(Nc1cccc(Nc2nccc(Nc3cccc(C(F)(F)F)c3)n2)c1)C1CC1	100
C[C@@H]1CCN(C(=O)CC#N)C[C@@H]1N(C)c1ncnc2[nH]ccc12	110
